# Measurements collected from several papers.
# A part holds a random share of what one study measured. Changes are numbered by the printed parent chain.

# Set 1
# Target: ABI1, truncated, D143A, DHFR fusion (Arabidopsis thaliana)
# Technique: DHFR PCA, deep sequencing
# Sample: yeast
# Notes: methotrexate growth selection, single substitutions
# With: (+)-ABA 200 µM
# Baseline: wild-type fitted maximum
# Reading: higher = stronger binding
# Starting sequence: PYL1, truncated, DHFR fusion (Arabidopsis thaliana); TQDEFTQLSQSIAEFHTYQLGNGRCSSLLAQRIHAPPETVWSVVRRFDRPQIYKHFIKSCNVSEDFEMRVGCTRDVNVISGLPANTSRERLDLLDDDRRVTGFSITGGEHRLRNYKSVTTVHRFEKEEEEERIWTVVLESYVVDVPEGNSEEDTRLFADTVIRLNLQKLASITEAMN; partner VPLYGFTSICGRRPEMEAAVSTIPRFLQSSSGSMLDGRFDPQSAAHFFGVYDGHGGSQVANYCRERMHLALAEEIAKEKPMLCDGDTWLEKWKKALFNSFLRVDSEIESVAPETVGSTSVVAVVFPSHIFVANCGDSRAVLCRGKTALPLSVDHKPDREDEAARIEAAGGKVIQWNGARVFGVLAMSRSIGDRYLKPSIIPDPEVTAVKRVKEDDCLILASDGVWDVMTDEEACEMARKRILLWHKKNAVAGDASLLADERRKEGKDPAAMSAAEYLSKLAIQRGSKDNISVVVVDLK
Variant,relative binding score [%]
G107V,16.7
V62K,62.8
E130P,112
E64G,100
D95Q,73.7
T39H,92.9
V40C,62.1
F157L,89.6
C25N,-7.22
P146Q,38.9
Q31G,36.4
V44I,93
V62I,106
A84H,40.3
W41I,-10.7
T154G,14.2
R132D,124

# Set 2
# Target: Interferon regulatory factor 7, full length, phosphomimetic (IRF7, Homo sapiens, UniProt Q92985, residues 1-503, S471D/S472D/S475D/S476D/S477D/S483D/S484D/S487D)
# UniProt Q92985, sequence (whole entry, unmodified, looked up): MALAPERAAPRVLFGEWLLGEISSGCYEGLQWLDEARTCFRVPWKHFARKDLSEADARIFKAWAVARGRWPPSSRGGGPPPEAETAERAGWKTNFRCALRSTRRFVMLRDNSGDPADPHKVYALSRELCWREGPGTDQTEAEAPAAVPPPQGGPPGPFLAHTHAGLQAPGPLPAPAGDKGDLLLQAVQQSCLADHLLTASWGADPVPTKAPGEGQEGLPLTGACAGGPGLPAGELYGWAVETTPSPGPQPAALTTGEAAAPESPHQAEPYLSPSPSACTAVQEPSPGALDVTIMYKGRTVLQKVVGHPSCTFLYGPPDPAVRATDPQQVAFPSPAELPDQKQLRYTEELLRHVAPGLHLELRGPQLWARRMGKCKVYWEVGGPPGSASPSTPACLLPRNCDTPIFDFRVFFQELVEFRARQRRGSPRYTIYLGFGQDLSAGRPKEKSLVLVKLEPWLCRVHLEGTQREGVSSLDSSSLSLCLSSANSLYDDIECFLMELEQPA
# Technique: protein-binding microarray
# Molecule type: double-stranded DNA, one strand shown
# Sample: in vitro
# Concentration: 2200 nM top
# Notes: 60-bp whole probe
# With: salmon DNA 0.4 mg/ml
# Baseline: random background probes
# Reading: higher = stronger binding
# Shared flanks, not repeated: GCCTAGCAC … GTCTTGATTCGCTTGACGCTGCTG
Sequence,fitted relative affinity [z-score]
TTAGGACTTGACTTTCGGTTAGTGCTA,5.68
TTAGGATTGCTTTTCCTTTAGTGCTAG,1.62
TTAGATCTCCGTATCGATTAGTGCTAG,0.635
GAACATATTTGTTTCCATTTGTGCTAG,3.91
CTAGGTATCGACACTGGGTTAGTGCTA,-0.183
TCAGTGATCAGTCTGATACTGTGCTAG,0.195
TATAAATTATCTTTAATCCTGTGCTAG,-0.158
TTACATCTCAGTTTCGATTAGTGCTAG,6.58
TCTGTCCTGATAGCCCTGGCGTGCTAG,0.718
TCAGGTTTCCAATCAGCACTGTGCTAG,2.26
TTAGGACTAGGTTTCGGTTAGTGCTAG,4.96
TCAACTTTCTCTGCTCTTACTGTGCTA,1.7
GAAGGACTGGGGTTTCGGGACGTGCTA,0.786
GACGGTTTCAGACTGGGGACGTGCTAG,1.13
TTTGAACTGAGTCTCGATTAGTGCTAG,0.0242
GACGATATCGGGTATCGATACGTGCTA,0.365
TTCGGTCTCGGTTTCGGTTAGTGCTAG,7.23
TTAGGTTTCGGGTAGCGGTTAGTGCTA,5.75
TTAGGTCTCCGTATCGGTTAGTGCTAG,0.582
ATAGATTTCGGGACTGGATTAGTGCTA,1

# Set 3
# Target: RNA binding protein fox-1 homolog 2, RRM domain, GST-SBP tag (RBFOX2, Homo sapiens, UniProt O43251-10, residues 100-194)
# Technique: RNA Bind-n-Seq
# Molecule type: RNA
# Sample: in vitro
# Concentration: 365 nM
# Notes: natural RNA segment, single round, ends assumed
# Baseline: no-protein control
# Reading: higher = stronger binding
# Shared flanks, not repeated: GGGAGUUCUACAGUCCGACGAUC … UGGAAUUCUCGGGUGCCAA
# Target sequence (chain): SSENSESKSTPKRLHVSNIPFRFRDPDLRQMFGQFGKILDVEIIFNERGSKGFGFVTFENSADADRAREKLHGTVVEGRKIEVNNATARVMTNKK
Sequence,RBNS enrichment (R)
CCCCUCCUCCUAAAGUCAAGGUGGGGUGGACAAUGACUUCCACAUCCCUCAGGGCAUAGAGUCCUUGCCACCACCUGUCCCCAGAUGCCAGUGUGUGGCACCCCUCCCCC,0.306
GUUGGGAGGCAGGUCGGGCUGCCAGCCCAGCUGGCCGGAAGGAGACUGUGGUUUUUGUGUGUGUGGACAGCCCGGGAGCUUUGAGACAGGUGCCUGGGGCUGGCUGCAGA,0.898
UCCAAUGGGUCACACAUGUCUUAUACAUACUUAAUAAUUGAGAGUGGCAAUUCCGCUGGAGCUGUCUGCCAAAAGAAACUGCCUACAGACAUCAUCACAGCAGCCUCCUC,0.566
UGCUCCUCCACAUCCUGGAGCGUCCCAGCACCUCCCCACCUACUUUUGUUCCCAAUGUCAGCCACCAUGCCUUAGCAGCUGAACAAUCGAGCCUCAUGCUCAUGAAAUCA,0.772
UCUUGCUAUACAGAAAAACCACAUUUCUUUUAUAUACUGUACGUGGGCAUAUCUUGUUGUUCAGUUUGGGUGUCUGCUAAAGAGGAAGUGCACUGGCCCUCUUUGAAAGG,1.77
UAAUUUGUGUUUUUGGAUUUUCUUUCAGAAGUAGUCAAAUGUCUAUGCUGUUACAUCCAGAAUAUUCAUUAGGCUGCCCCACAGCUCUUCUGUAUAUAUAGAGACCACAG,0.311
UAGCAAGCAUGCACAUCAAAUUCACCAGAAGUACAACCCAUCGGCGCAGUCAGAGGAUGGAGUCUGAUGUCUUCCGGCUGCUGCCUUUGUGGGCAGAGCUAAUCCAAGUU,4.94
AGACCCUGUAUUUAAUCUACUUUGAUCAGAGAAGUAGAAUUUAUAACAGGUUAGCUAAAAUUGGGAGCAUGCCUUAAAACUUAAAGAUUGUAUGCAUAUAUGUGUAUAUG,1.44
AUACACAUAAAAUAUAUAUAUGUAUGAUACAUGAAAUAUAUUUAGAAAUGUUCAUAAUUUUAAUGGAUAUCCUUUGGUGUGAAUAAUUGAAUACAGAGUUUUUAAAAUAU,0.772
UGCAGUUUCCUGCUUUCUGCCCUGAACUUUGAAAUGCCUGUGUAAGGAAUCAAAAUGAACAUGAUCGUACUUUUUAAAAGUGAAAUAAUUAAGGAAGAAAGAAAGAGGAA,0.838
AGAAGCAAACAAAAUACUUUUACCCACUUAAAAAGAGAAUAUAACAUUUUAUGUCACUAUAAUCUUUUGUUUUUUAAGUUAGUGUAUAUUUUGUUGUGAUUAUCUUUUUG,0.552
AAAAAACAUGUGUCCUAGCUGGGCAUAGUGGUGCAUACCUUUAAUCCCAGCACUUGGGAGGCAGAGGCAGGUGAAUUUCUAAGUUCAAGGCCAGCUUGGUCUAUAGAGUG,0.201

# Set 4
# Target: RING finger protein unkempt homolog, zinc fingers 1-6, SBP tag (UNK, Homo sapiens, UniProt Q9C0B0, residues 30-357)
# UniProt Q9C0B0, sequence (30-357, looked up): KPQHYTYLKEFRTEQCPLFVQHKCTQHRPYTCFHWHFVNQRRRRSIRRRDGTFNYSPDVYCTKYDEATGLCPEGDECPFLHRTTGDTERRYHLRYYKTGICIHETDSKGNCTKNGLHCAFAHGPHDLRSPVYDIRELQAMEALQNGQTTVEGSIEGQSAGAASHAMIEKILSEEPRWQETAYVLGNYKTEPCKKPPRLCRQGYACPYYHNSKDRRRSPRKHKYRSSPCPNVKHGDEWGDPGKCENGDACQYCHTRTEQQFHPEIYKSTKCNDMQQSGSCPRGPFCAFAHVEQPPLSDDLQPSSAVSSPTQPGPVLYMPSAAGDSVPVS
# Technique: RNA Bind-n-Seq
# Molecule type: RNA
# Sample: in vitro
# Concentration: 100 nM
# Notes: RNA with constant flanks, vertebrate orthologous sites, ends assumed
# Baseline: input RNA pool
# Reading: higher = stronger binding
# Shared flanks, not repeated: GGGAGUUCUACAGUCCGACGAUC … CAACAGAGGAUUGAGCAUCA
Sequence,bound/input enrichment
CUUUAUGAGAUUUGGACCUUGGAGCCGAACCAGCAAAAGUAAAGCCGACUUGUAAAAUUAUAGCCAUAUGCAGCUGUACAACAAUGCUACUACAAGCAGCUGUGUUAAAAUAUUUAUAAG,0.548 ratio
AAAUAUAUUUUAUGCCAUGGACUCCAUACCGUACGGAUACAUUAAUAGAGUAUGCUUCUUUACAAGAUUUUCAAAAUGGCAGACAGACUACAACAUAUAAACUUCCCAAUCGAGUGGAUG,1.01 ratio
ACAUGUAUAUUGUGGCAUAUAGUCAACAUGGAAGUAGACCGGCUCUGCUGAUUUGAAAUUUAGAUUUUUUUAAUUAUGUACUGGGGACAGGUUUUUGUCGCUUUACAUUGCUUCCUAGUU,4.4 ratio
AUCUCCAUAAUAACCUGGGAUUUUCAAAGACAGGAAGCUUUUUUUUUUUUUUUUUAACAGUUUAGUACUUGGUUUCUACGAGGAGGACUAAACUCAUGCUUAUAGCUACAUGUGGUCUUC,0.591 ratio
UUUUAAGGUUUUUUAAUUUAUUUUUCGUUUUCUUUUGGGGGUAAAGUUUGCUCUACCAAAUAGUGAUCGUAACAAACUGAUCUGUUAUGGAUGUUGCUAUAGUGACAUGCAAUUAUAUAU,0.971 ratio
AAUUUUCUUAUUUUAGGUAUCAUUGCCCAAUGCCCAAGAUCUUUUAUGUUCAGCUGACUGUAGGAAAUAAUGAAUUUUUUGGGGAAGGAAAGACUCGACAAGCUGCUAGACACAAUGCUG,1.42 ratio
UAAUGUGUUUUUAUUUAUUGAAAAUAGUUUUGUGGUAAGGAUUGUGUUAGAUUUACAAAUCAGUGAAUUGAUUCCUCUUUGUUGUGUUGCUUUCAUUGUUGAAAAUAAAUAGAACUUUGA,0.348 ratio
GGCAGGCCAGGGAUUGAGGCCGACCUUCCCACAGUUACCGAGUAGGUACGGAAACAACAGGACUGGACAGCCAAGACCUUGAAGGACUCUAACUUAUUUUCAUGGAGACUAUCGACUCCU,0.314 ratio
AAUUUUUUAAAGUUUUUUAAUUUAUUUUUUUCUUUUGGGGGUAAAGUUCGCUCUACCAAAUAGUGAUCGUAACAAAUUGAUCUGUUAUGGAUGUUGCUAUAGUGACAUGCAAUUAUAUCU,0.719 ratio
GUGAGGGCCUACUGACCACUCACUGUUCUGAGUCUGGUAUCUGUAAACACUUUUUGUUCUUAGUCCUUUUCUUGUAUAAUUGAUGUUCUUUAAAAUUGUUAAUGUAAACAGGGCUUCUGU,0.889 ratio
AGGACUAAUUUGAUGAUUUUUAAUUUCUUUUCCUGGUUUUUAAAGCCCUCUUUUUUUAGGCAUAUAUAGUAACAUUAGCAGAAAGAUUUAAUUUGGACAACUUUGAUUCUGAUUCUUAAA,0.881 ratio

# Some of these lines once more (set 2):
Sequence,fitted relative affinity [z-score]
TATAAATTATCTTTAATCCTGTGCTAG,-0.158
GAAGGACTGGGGTTTCGGGACGTGCTA,0.786
TTAGGATTGCTTTTCCTTTAGTGCTAG,1.62
TTACATCTCAGTTTCGATTAGTGCTAG,6.58
GAACATATTTGTTTCCATTTGTGCTAG,3.91
GACGGTTTCAGACTGGGGACGTGCTAG,1.13
GACGATATCGGGTATCGATACGTGCTA,0.365
